Measurements from different studies.
Lines come from different studies, so protocols differ.
Chain of UniProt P11388 (whole entry, looked up): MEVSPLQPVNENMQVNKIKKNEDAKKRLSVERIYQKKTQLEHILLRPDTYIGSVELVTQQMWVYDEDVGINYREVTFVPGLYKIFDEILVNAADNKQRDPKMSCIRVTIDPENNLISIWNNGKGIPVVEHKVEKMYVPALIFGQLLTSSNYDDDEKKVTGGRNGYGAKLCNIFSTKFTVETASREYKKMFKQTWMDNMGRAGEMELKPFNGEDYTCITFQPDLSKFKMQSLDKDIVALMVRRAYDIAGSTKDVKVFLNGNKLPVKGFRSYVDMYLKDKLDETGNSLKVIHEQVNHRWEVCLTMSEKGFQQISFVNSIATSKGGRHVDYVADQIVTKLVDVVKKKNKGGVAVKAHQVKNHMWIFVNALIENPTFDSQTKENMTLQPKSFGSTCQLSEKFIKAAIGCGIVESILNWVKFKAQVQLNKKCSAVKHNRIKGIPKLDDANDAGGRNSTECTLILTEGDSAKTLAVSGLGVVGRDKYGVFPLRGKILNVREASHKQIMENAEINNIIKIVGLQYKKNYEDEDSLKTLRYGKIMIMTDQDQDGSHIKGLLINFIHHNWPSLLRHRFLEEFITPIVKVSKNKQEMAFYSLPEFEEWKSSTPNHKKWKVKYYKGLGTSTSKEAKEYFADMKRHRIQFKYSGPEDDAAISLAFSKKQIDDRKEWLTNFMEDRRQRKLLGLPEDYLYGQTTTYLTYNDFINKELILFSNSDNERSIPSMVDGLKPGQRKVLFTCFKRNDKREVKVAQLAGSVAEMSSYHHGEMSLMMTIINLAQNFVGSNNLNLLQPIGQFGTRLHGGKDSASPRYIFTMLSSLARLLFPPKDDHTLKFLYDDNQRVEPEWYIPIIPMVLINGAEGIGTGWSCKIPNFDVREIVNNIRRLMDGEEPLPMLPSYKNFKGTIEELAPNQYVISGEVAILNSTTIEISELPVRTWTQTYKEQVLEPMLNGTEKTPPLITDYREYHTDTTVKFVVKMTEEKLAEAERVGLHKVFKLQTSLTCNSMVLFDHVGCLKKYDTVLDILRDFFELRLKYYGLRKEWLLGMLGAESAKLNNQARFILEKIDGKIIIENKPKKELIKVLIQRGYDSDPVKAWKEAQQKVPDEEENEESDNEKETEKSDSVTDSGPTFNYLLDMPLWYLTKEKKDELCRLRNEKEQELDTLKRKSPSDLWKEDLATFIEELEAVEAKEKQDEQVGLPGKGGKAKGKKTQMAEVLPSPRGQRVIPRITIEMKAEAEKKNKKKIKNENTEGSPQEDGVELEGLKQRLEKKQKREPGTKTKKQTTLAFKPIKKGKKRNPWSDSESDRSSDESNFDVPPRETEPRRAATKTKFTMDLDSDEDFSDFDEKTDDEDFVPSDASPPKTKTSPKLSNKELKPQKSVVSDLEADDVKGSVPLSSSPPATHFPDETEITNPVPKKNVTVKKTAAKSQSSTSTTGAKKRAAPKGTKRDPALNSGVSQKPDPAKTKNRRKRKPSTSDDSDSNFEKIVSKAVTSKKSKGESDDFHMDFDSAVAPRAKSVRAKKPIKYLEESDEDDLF

COC(=O)Nc1c(N)nc(-c2nn(Cc3ccccc3F)c3ncc(F)cc23)nc1N  seated SBP maximum decrease (healthy white men; dose not given, day 13, 312 h, LS mean difference, added: sildenafil 25 mg; reference: placebo): -4.8 mmHg
N#CCC1CCN(c2nc(Nc3ccc(N4CCC(O)CC4)cc3)c3c(=O)[nH]ncc3n2)CC1  serum level change (Olink multiplex, item: CD163; human, serum; 80 mg, day 29, unit not given; reference: placebo): -1.5
CO/N=C(\C(=O)N[C@@H]1C(=O)N2C(C(=O)O)=C(COC(C)=O)CS[C@H]12)c1csc(N)n1  MIC (Salmonella enterica serovar München; broth microdilution; clinical isolate RKI-No 419/14): > 16 mg/L
OC[C@H]1O[C@@H](O[C@@H]2[C@@H](O)[C@H](O[C@@H]3[C@@H](O)[C@H](O[C@@H]4[C@@H](O)[C@H](O[C@@H]5[C@@H](O)[C@H](O[C@H]6[C@H](O)[C@@H](CO)OC(O)[C@@H]6O)O[C@H](CO)[C@H]5O)O[C@H](CO)[C@H]4O)O[C@H](CO)[C@H]3O)O[C@H](CO)[C@H]2O)[C@H](O)[C@@H](O)[C@@H]1O (stereo partly drawn)  -TΔS (Bacteroides thetaiotaomicron; binding, ITC; pH 7.0, 25 °C, middle domain): 62.3 kJ/mol
CNC(=O)c1ccccc1Nc1nc(Nc2ccc(N3CCNCC3)cc2)ncc1Cl  number of kinases displaced (competition with compound beads; A-375 cell lysate; binding reduced to 60% at 30 µM): 157
COC(=O)N[C@H](C(=O)N[C@@H](Cc1ccccc1)[C@@H](O)CN(Cc1ccc(-c2ccccn2)cc1)NC(=O)[C@@H](NC(=O)OC)C(C)(C)C)C(C)(C)C  remaining activity (vericiguat glucuronidation, inhibitor, item: metabolite M-1 formation; human liver microsomes; 5.0 µM; reference: no inhibitor): 75%
COc1cc([C@@H]2c3cc4c(cc3[C@@H](O[C@@H]3O[C@@H]5CO[C@@H](C)O[C@H]5[C@H](O)[C@H]3O)[C@H]3COC(=O)[C@H]23)OCO4)cc(OC)c1O  mean linear DNA (TOP2A (Homo sapiens, UniProt P11388); DNA cleavage; 12.5 µM): 13.2%
CC1COc2ccccc2N1C(=O)C(Cl)Cl (stereo not drawn)  scaled intrinsic clearance (glutathione S-transferase; male rhesus monkey liver cytosol; 5 µM, pH 7.4, added: GSH): 120 mL/min/g liver
C[C@@H]1C[C@H]2O[C@@]3(O[C@@H]2C(C)(C)O)[C@H](O)[C@@]2(C)[C@@H]4CC[C@H]5C(C)(C)[C@@H](O[C@@H]6OC[C@@H](O)[C@H](O)[C@H]6O)CC[C@@]56C[C@@]46CC[C@]2(C)[C@@H]13  activity call (agonist, qPCR in vivo, item: Shp and Bsep mRNA; Oryzias latipes; dose not given): active
Cc1cccc(Nc2ccccc2C(=O)O)c1C  remaining activity (vericiguat glucuronidation, inhibitor, item: metabolite M-1 formation; human liver microsomes; 10.0 µM; reference: no inhibitor): 85.2%
COc1cc2c(c(OC)c1OC)-c1ccc(OC)c(=O)cc1[C@@H](NC(C)=O)CC2  activity call (antagonist, qPCR in vivo, item: Shp and Bsep mRNA; Oryzias latipes; dose not given): toxic
Fc1ccccc1Cc1nc(-c2nc(C(F)(F)F)n[nH]2)cn2ccnc12  delayed maze test moves (healthy volunteers; 10 mg, single ascending dose, unit not given; reference: placebo): 0.3

Excerpt of the above:
CO/N=C(\C(=O)N[C@@H]1C(=O)N2C(C(=O)O)=C(COC(C)=O)CS[C@H]12)c1csc(N)n1  MIC (Salmonella enterica serovar München; broth microdilution; clinical isolate RKI-No 419/14): > 16 mg/L
OC[C@H]1O[C@@H](O[C@@H]2[C@@H](O)[C@H](O[C@@H]3[C@@H](O)[C@H](O[C@@H]4[C@@H](O)[C@H](O[C@@H]5[C@@H](O)[C@H](O[C@H]6[C@H](O)[C@@H](CO)OC(O)[C@@H]6O)O[C@H](CO)[C@H]5O)O[C@H](CO)[C@H]4O)O[C@H](CO)[C@H]3O)O[C@H](CO)[C@H]2O)[C@H](O)[C@@H](O)[C@@H]1O (stereo partly drawn)  -TΔS (Bacteroides thetaiotaomicron; binding, ITC; pH 7.0, 25 °C, middle domain): 62.3 kJ/mol
